Assay results from different studies.
Each line is one published result; not all experiments were run side by side. “And” joins repeats or separate records; there may be more than shown. Numbers after ± are the reported error.
blaNDM-1: Metallo-beta-lactamase type 2 (blaNDM-1, Klebsiella pneumoniae, UniProt C7C422)
Chain of UniProt A5GZW8 (whole entry, looked up): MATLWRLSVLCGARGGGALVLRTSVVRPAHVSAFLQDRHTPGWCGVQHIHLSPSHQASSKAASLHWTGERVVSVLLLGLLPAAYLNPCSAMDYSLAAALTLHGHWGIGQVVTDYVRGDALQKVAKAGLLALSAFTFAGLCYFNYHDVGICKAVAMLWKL
Chain of UniProt Q007T0 (whole entry, looked up): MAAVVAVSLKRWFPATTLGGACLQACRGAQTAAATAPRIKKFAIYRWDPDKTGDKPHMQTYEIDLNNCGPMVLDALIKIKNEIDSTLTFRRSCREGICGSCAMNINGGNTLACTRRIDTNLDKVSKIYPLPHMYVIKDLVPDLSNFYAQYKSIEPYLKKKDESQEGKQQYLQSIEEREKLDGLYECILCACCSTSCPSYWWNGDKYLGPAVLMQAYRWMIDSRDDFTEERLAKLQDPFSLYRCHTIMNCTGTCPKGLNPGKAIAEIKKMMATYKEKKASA
Chain of UniProt D0VWV4 (whole entry, looked up): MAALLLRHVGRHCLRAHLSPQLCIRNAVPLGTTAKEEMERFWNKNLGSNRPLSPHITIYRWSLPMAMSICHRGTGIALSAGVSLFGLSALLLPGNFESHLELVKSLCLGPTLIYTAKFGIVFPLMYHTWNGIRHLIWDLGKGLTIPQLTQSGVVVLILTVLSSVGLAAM
Chain of UniProt P51170 (whole entry, looked up): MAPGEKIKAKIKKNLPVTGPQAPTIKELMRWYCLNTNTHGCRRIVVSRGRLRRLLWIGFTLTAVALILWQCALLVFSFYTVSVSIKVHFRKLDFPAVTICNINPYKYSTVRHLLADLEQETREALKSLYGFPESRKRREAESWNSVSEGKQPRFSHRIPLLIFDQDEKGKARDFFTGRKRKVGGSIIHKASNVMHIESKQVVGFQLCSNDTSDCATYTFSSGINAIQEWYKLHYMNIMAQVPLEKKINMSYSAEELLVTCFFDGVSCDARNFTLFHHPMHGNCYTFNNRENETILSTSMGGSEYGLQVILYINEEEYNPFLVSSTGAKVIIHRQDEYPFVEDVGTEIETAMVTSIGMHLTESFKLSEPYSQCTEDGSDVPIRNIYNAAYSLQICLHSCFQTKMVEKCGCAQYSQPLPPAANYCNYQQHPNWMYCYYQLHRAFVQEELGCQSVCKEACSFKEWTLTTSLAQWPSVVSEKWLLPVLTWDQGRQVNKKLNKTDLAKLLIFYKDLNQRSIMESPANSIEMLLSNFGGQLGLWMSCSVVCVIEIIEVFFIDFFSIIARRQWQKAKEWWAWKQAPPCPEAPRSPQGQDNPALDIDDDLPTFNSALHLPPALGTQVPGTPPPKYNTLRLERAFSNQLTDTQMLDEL
Chain of UniProt Q8IVW4 (whole entry, looked up): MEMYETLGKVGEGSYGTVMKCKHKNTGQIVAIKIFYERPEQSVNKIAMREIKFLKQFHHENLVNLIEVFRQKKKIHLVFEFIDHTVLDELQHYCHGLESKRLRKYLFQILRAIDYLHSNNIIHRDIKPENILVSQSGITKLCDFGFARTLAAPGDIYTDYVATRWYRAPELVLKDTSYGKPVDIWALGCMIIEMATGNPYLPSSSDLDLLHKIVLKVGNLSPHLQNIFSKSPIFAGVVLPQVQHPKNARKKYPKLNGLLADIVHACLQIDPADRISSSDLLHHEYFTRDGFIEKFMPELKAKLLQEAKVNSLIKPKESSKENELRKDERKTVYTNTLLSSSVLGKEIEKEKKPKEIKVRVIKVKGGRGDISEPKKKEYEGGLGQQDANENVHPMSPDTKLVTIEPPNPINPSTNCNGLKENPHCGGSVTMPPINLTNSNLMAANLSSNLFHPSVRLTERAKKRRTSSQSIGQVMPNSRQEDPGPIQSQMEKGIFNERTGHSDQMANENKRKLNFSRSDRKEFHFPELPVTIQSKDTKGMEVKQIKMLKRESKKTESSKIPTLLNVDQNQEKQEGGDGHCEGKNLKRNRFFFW
Chain of UniProt P42336 (whole entry, unmodified, looked up): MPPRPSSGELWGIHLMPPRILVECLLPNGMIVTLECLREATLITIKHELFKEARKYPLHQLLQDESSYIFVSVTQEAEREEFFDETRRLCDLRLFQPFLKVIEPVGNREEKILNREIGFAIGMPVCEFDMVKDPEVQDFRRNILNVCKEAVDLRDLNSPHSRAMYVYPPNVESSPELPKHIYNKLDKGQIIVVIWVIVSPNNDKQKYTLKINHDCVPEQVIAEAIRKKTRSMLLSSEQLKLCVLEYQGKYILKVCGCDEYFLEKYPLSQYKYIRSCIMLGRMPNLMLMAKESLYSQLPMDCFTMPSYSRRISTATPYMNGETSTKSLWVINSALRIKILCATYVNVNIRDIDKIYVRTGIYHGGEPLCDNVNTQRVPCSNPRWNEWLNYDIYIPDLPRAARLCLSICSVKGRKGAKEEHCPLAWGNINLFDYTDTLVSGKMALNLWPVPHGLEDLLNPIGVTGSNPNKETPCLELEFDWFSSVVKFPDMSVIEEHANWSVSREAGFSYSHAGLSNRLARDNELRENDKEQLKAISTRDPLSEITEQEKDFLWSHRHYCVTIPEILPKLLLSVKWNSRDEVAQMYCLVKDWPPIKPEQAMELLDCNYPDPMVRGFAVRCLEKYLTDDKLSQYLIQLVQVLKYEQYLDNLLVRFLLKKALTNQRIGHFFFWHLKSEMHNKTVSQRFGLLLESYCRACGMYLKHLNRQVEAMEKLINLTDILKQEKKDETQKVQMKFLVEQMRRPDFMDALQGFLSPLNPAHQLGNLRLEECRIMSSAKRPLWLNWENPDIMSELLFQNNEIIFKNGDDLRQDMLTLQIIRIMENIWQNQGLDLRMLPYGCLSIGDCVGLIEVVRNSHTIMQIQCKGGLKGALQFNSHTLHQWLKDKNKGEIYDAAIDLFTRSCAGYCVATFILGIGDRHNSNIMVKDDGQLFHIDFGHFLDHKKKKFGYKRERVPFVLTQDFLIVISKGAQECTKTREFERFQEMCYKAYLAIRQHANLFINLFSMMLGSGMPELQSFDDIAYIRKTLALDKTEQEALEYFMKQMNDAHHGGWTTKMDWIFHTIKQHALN
Chain of UniProt P62136 (whole entry, unmodified, looked up): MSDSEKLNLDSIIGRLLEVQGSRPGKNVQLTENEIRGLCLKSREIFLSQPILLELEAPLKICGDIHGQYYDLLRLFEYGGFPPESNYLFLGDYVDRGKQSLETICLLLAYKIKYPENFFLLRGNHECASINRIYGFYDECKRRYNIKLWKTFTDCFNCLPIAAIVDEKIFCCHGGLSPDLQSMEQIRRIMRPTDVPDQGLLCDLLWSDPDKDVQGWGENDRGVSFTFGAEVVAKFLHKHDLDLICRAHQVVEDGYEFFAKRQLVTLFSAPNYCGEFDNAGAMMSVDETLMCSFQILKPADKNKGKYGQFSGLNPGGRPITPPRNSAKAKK
Chain of UniProt P19099 (whole entry, unmodified, looked up): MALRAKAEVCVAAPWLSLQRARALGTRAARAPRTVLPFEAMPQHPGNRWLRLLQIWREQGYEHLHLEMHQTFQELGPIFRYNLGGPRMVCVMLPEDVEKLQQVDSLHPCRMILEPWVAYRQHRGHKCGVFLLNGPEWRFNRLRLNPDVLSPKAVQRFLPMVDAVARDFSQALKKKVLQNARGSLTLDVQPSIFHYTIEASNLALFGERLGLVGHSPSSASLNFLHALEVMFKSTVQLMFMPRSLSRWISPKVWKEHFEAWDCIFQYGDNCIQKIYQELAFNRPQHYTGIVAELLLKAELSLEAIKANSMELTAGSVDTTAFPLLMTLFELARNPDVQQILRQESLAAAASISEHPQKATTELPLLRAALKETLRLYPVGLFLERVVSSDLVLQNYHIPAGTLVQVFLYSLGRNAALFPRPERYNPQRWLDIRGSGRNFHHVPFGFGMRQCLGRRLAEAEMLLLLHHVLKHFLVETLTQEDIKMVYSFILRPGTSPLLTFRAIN
Chain of UniProt P41738 (whole entry, looked up): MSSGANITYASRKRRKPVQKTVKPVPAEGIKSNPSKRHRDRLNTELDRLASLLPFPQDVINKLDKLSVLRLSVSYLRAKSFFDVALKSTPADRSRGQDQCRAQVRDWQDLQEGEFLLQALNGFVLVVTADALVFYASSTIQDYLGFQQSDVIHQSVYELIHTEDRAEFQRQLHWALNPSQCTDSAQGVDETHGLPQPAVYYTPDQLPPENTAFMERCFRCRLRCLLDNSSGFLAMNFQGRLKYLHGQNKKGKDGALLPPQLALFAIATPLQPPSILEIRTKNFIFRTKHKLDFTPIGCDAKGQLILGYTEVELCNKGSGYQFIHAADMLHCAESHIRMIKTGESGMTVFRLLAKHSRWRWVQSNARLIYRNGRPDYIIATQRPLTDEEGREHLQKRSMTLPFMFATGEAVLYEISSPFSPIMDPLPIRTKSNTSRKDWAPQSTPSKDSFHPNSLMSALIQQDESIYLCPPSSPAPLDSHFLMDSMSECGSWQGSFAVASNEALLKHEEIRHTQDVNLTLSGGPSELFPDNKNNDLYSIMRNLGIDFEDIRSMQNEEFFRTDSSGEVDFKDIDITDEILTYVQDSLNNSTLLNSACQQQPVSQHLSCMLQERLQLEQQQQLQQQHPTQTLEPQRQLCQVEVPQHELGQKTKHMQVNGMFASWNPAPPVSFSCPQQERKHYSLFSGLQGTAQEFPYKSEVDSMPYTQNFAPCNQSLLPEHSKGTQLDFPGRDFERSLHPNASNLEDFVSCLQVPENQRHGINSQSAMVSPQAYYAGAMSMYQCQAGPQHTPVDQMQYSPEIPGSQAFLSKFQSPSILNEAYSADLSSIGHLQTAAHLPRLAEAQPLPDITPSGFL
Chain of UniProt P00942 (whole entry, unmodified, looked up): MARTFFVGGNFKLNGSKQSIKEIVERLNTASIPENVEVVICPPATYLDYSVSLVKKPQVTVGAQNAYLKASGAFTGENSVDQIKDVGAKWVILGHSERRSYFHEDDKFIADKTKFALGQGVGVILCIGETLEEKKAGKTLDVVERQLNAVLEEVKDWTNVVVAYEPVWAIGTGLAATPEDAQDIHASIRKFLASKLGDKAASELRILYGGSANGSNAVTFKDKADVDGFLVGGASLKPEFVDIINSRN

O=P(O)(O)OC[C@H]1C[C@](O)(CO)[C@@H](O)[C@H](O)[C@@H]1O — apparent Vmax (valA (Streptomyces hygroscopicus, UniProt H2K887); phosphate release; 50 µM): 2.8 ± 0.4 µM/min
OB(O)CSc1nc2ccccc2n1Cc1ccc(C(F)(F)F)cc1C(F)(F)F — melting temperature (Regulatory protein BlaR1, sensor domain (blaR1, Staphylococcus aureus, UniProt P18357); thermal stability, nanoDSF; concentration not given, BlaR 0.5 mg/mL): 53.5 ± 0.2 °C
O=C(O)c1cccc(C(=O)O)n1 — kon (blaNDM-1; enzyme activity, inhibitor; added: nitrocefin): 1330 ± 333 M⁻¹ s⁻¹
Cn1cc(C2=C(c3ccc(Cl)cc3Cl)C(=O)NC2=O)c2ccccc21 — Hill coefficient (blaNDM-1; inhibitor): 1.7
C=C(CN(C(=O)c1c(C(F)F)nn(C)c1F)C1CC1)c1ccc(Cl)cc1Cl — reaction velocity (SDHD/SDHC/SDHB (Sus scrofa, UniProt A5GZW8+D0VWV4+Q007T0); enzyme activity, inhibitor, DCIP reduction; pig; 0.4 µM, added: DCIP 190 µM): 0.0198 µM/s and 0.0181 µM/s and 0.0179 µM/s
C[C@]12CC[C@H]3[C@@H](CCC4=CC(=O)CC[C@@]43C)[C@@H]1CC[C@@H]2C(=O)CO — k-1 (Cytochrome P450 11B2, mitochondrial (CYP11B2, Homo sapiens, UniProt P19099, A320V); substrate): 0.55 ± 0.06 s⁻¹
CC(CCn1ccc(-c2ccc(-c3cn(Cc4ccncn4)nn3)cc2)cc1=O)(C(=O)NO)S(C)(=O)=O (centres unmarked) — residence time (UDP-3-O-acyl-N-acetylglucosamine deacetylase (Pseudomonas aeruginosa, UniProt P47205); fluorescence; 37 °C): 103 ± 20.2 min
CO[C@H]1C[C@H](O[C@H]2[C@H](C)O[C@@H](O[C@@H]3/C(C)=C/C[C@@H]4C[C@@H](C[C@]5(C=C[C@H](C)[C@@H](C6CCCCC6)O5)O4)OC(=O)[C@@H]4C=C(C)[C@@H](O)[C@H]5OC/C(=C\C=C\[C@@H]3C)[C@]54O)C[C@@H]2OC)O[C@@H](C)[C@@H]1O — efficacy (Nuclear receptor subfamily 1 group I member 3 (Homo sapiens, UniProt Q14994); coactivator recruitment; concentration not given, added: 0.1 µM CITCO): 1.84 ± 0.54%
O=C(Nc1cnccc1Cl)N1CCN(Cc2ccc3c(c2)OC(F)(F)O3)CC1 — inhibition (Vitamin D3 receptor (VDR, Homo sapiens, UniProt P11473); radioligand binding, inhibitor; 10 µM, human, added: [3H]1alpha,25-dihydroxyvitamin D3): 0%
COc1ccc([C@@H]2CC(=O)c3c(O)cc(O[C@@H]4O[C@H](CO[C@@H]5O[C@@H](C)[C@H](O)[C@@H](O)[C@H]5O)[C@@H](O)[C@H](O)[C@H]4O)cc3O2)cc1O — in vitro therapeutic index (Superoxide dismutase [Cu-Zn], fully metallated (SOD1, Homo sapiens, UniProt P00441); enzyme activity, XTT): > 5
CCOC(=O)COc1ccc2c(=O)c3ccccc3oc2c1 — reaction velocity (Acetylcholinesterase (ache, Electrophorus electricus, UniProt O42275); enzyme activity; 1.68 µM, added: substrate 0.43 mM; higher = faster reaction): 0.0006 a.u.
COc1cc(N)c(Cl)cc1C(=O)NC1CN2CCC1CC2 (centres unmarked) — log2 fold change (G-protein coupled receptor 35 (GPR35, Homo sapiens, UniProt Q9HC97); β-arrestin recruitment, TANGO luminescence; concentration not given; baseline: basal luminescence): -0.138
NCCc1c[nH]c2ccc(O)cc12 — Km (AANAT2 Rangifer tarandus; substrate, DTNB colorimetric; added: acetyl-CoA): 90 ± 30 µM
CC(C)OC(=O)[C@H](C)NP(=S)(Oc1ccc(CCN2CCOCC2)cc1)c1ccccc1 (some centres unmarked) — DNS-NH2 formation rate constant (Lysosomal protective protein (CTSA, Homo sapiens, UniProt P10619); substrate; 5 µM, pH 7.4, 37 °C): 0.147 h⁻¹
O=C(NO)[C@H]1COC(c2c[nH]c3ccc(F)cc23)=N1 — entropy change (ΔS) (UDP-3-O-acyl-N-acetylglucosamine deacetylase (Pseudomonas aeruginosa, UniProt P47205, C40S); isothermal titration calorimetry; concentration not given, 298 K, untagged protein, averaged): 0.026 kcal/mol/K
COc1ccc(N2C(=O)N(c3c(C)cccc3Cl)Cc3cnc(Nc4ccc(C5CCN(C)CC5)cc4OC)nc32)nc1 — inhibition (Fibroblast growth factor receptor 4 (FGFR4, Homo sapiens, UniProt P22455); kinase activity; 0.5 µM): 30%
c1ccc2c(c1)cc1ccc3cccc4ccc2c1c34 — Hill slope (Aryl hydrocarbon receptor (Ahr, Rattus norvegicus, UniProt P41738); reporter gene, agonist; H4IIE-luc rat hepatoma cells; 0.2 to 50 nM): 43
CNC(=O)Oc1ccccc1OC(C)C — remaining activity (uncharacterized protein (Anopheles coluzzii, UniProt A0A6E8VQK1); enzyme activity, inhibitor; Sf9 cell homogenate; 0.2326 µM, 0.1667 h, added: α-naphthyl acetate substrate; baseline: no inhibitor): 97.5%
C[C@H]1CN(c2n[nH]c3nc(N[C@H]4CC[C@H](NS(=O)(=O)CCC(F)(F)F)CC4)ncc23)CCO1 — relative abundance (Serine/threonine-protein kinase Chk1 (CHEK1, Homo sapiens, UniProt O14757); inhibitor, Kinobeads competition profiling; 0.032 µM; baseline: vehicle): 1.03
Cc1c(-c2cccnc2)c2ccccc2n1CCCCC(=O)O — fold change (Fatty acid-binding protein, adipocyte (FABP4, Homo sapiens, UniProt P15090); binding, affinity selection mass spectrometry; 100 nM, pooled screen; baseline: other proteins): 43
CCCCC/C=C\C/C=C\C/C=C\C/C=C\CCCC(=O)NCCO — Hill coefficient (Transient receptor potential cation channel subfamily V member 1 (Trpv1, Mus musculus, UniProt Q704Y3, S513A); ion current, agonist, whole-cell patch clamp): 2.8 ± 0.61
CC[C@H](C)[C@H](NC(=O)CNC(=O)[C@@H](N)CCCCN)C(=O)N[C@@H](CC(C)C)C(=O)N[C@@H](CCCCN)C(=O)N[C@@H](CCCNC(=N)N)C(=O)N[C@@H](CCC(=O)O)C(=O)N[C@@H](CCCCN)C(=O)N[C@@H](CCCNC(=N)N)C(=O)N[C@@H](CC(C)C)C(=O)N[C@@H](CCCNC(=N)N)C(=O)N[C@@H](CCCNC(=N)N)C(=O)N[C@@H](CCCCN)C(=O)N[C@@H](CC(N)=O)C(=O)N[C@H](C(=O)N[C@@H](Cc1c[nH]cn1)C(=O)N[C@@H](Cc1c[nH]c2ccccc12)C(=O)N1CCC[C@H]1C(=O)N[C@@H](CCC(=O)O)C(=O)N[C@@H](CCC(=O)O)C(=O)NCC(=O)N[C@@H](CCCCN)C(=O)N[C@@H](CC(C)C)C(=O)N[C@@H](CCCNC(=N)N)C(=O)N[C@@H](CCC(=O)O)C(=O)N[C@@H](Cc1ccccc1)C(=O)N[C@@H](Cc1ccccc1)C(=O)N[C@@H](Cc1ccccc1)C(=O)N[C@@H](Cc1ccccc1)C(=O)N[C@@H](CCC(=O)O)C(=O)N[C@@H](CC(C)C)C(=O)N[C@@H](CC(=O)O)C(=O)N[C@@H](CCC(=O)O)C(=O)N[C@@H](C)C(=O)N[C@@H](CCC(=O)O)C(=O)N[C@@H](CCCNC(=N)N)C(=O)N[C@H](C(=O)N[C@@H](CC(N)=O)C(=O)N[C@H](C(=O)O)C(C)C)C(C)C)C(C)C — entropic term −TΔS (Serine/threonine-protein phosphatase PP1-alpha catalytic subunit (PPP1CA, Homo sapiens, UniProt P62136); binding, isothermal titration calorimetry; 25 °C, PP1α residues 7-330): -17.1 ± 1.1 kcal/mol
CCC(CNc1nc(-c2cn3ccnc3cc2C)nc2ccccc12)c1ccccc1 (centres unmarked) — Emax (Sodium-dependent dopamine transporter (SLC6A3, Homo sapiens, UniProt Q01959); [3H]dopamine uptake, inhibitor; CHO-K1 expressing transporter): 68.4 ± 8.56%
O=C(Nc1cccnn1)N1CCC(=Cc2cccc(Oc3ccc(C(F)(F)F)cn3)c2)CC1 — probe labelling (Calumenin (Calu, Rattus norvegicus, UniProt O35783); competitive ABPP with azido-FP probe; rat brain soluble fraction; 0.1 µM, unit not given; baseline: DMSO): -13.3
Nc1nc2c(ncn2[C@@H]2O[C@@H]3COP(=O)(O)O[C@H]4[C@@H](O)[C@H](n5cnc6c(=O)[nH]c(N)nc65)O[C@@H]4COP(=O)(O)O[C@H]3[C@H]2O)c(=O)[nH]1 — binding entropy (ΔS) (Cell cycle histidine kinase CckA, cytoplasmic region (Caulobacter vibrioides, UniProt Q9X688); isothermal titration calorimetry; concentration not given, added: ADP 5 mM): 43.9 cal/mol/deg
CC(C)C[C@H](NC(=O)[C@@H]1CCCN1C(=O)[C@H](CCCNC(=N)N)NC(=O)[C@H](CC(C)C)NC(=O)[C@H](CCCNC(=N)N)NC(=O)[C@H](CC(=O)O)NC(=O)[C@H](Cc1ccc(O)cc1)NC(=O)[C@H](CC(=O)O)NC(=O)[C@H](CCC(=O)O)NC(=O)[C@H](CCC(N)=O)NC(=O)CN)C(=O)O — kon (Epithelial sodium channel subunit gamma (Homo sapiens, UniProt P51170); binding, bio-layer interferometry): 692000 M⁻¹ s⁻¹
CN1CCN(c2cc(-c3ccncc3)c(-c3ccc4ccccc4c3)nn2)CC1 — inhibition (Oxytocin receptor (OXTR, Homo sapiens, UniProt P30559); antagonist, FLIPR; 10 µM): -8.8%
COC(=O)[C@@]1(O)C[C@H]2O[C@]1(C)n1c3ccccc3c3c4c(c5c6ccccc6n2c5c31)C(=O)NC4 — remaining activity (Mitogen-activated protein kinase 3 (MAPK3, Homo sapiens, UniProt P27361); ADP-Glo; 2.91 µM, added: substrate MBP): 114%
CN(C(=O)n1cnc(-c2ccc[n+]([O-])c2)c1)C1CCCCC1 — inhibition (IP3 receptor, rat; binding; 10 µM, added: [3H]IP3): 10%
C[C@@H](NC(=O)[C@@H](N)Cc1ccc(O)cc1)C(=O)NCC(=O)N[C@@H](Cc1ccccc1)C(N)=O — selectivity ratio (Mu-type opioid receptor (Oprm1, Rattus norvegicus, UniProt P33535); binding; baseline: Ki δ over Ki µ): 107
O=C(c1ccc(Cl)cc1)N1CCN2C(=O)N(OC(=O)N3CCOc4ccccc43)C(=O)C2C1 (centres unmarked) — median ratio (Acyl-coenzyme A thioesterase 2, mitochondrial (ACOT2, Homo sapiens, UniProt P49753); enzyme activity, inhibitor, MS-based ABPP; SW-620 in situ; 10 µM, 2 h, 37 °C; baseline: compound over DMSO, lower = stronger inhibition): 1.09
Nc1ncc(-c2nc(N3CCOCC3)nc(N3CCOCC3)n2)c(C(F)F)n1 — remaining binding (Phosphatidylinositol 4,5-bisphosphate 3-kinase catalytic subunit alpha isoform (PIK3CA, Homo sapiens, UniProt P42336, E545K); KINOMEscan; 10 µM): 0%
COc1cc(Nc2ncc(F)c(Nc3ccc4c(n3)NC(=O)C(C)(C)O4)n2)cc(OC)c1OC — inhibition (Cyclin-dependent kinase-like 3 (CDKL3, Homo sapiens, UniProt Q8IVW4); KINOMEscan; 10 µM): 0%
[2H]c1c([2H])c([C@]2([2H])CCCN2C(=O)C(C)(C)Oc2ccc3cn[nH]c3c2)c([2H])c([2H])c1C([2H])([2H])[2H] — remaining binding (Mitogen-activated protein kinase 9 (MAPK9, Homo sapiens, UniProt P45984); KINOMEscan; 1 µM; baseline: DMSO control): 100%
O=C(O)COP(=O)(O)O — Ki ratio (TPI1 (Saccharomyces cerevisiae, UniProt P00942, Y208F); enzyme activity, competitive inhibitor, GPDH/NADH-coupled; pH 9.3, 25 °C, ionic strength 0.1 NaCl, added: glyceraldehyde 3-phosphate substrate; baseline: mutant over wild type): 12

Excerpt of the above:
CCCCC/C=C\C/C=C\C/C=C\C/C=C\CCCC(=O)NCCO — Hill coefficient (Transient receptor potential cation channel subfamily V member 1 (Trpv1, Mus musculus, UniProt Q704Y3, S513A); ion current, agonist, whole-cell patch clamp): 2.8 ± 0.61
C[C@H]1CN(c2n[nH]c3nc(N[C@H]4CC[C@H](NS(=O)(=O)CCC(F)(F)F)CC4)ncc23)CCO1 — relative abundance (Serine/threonine-protein kinase Chk1 (CHEK1, Homo sapiens, UniProt O14757); inhibitor, Kinobeads competition profiling; 0.032 µM; baseline: vehicle): 1.03
Cn1cc(C2=C(c3ccc(Cl)cc3Cl)C(=O)NC2=O)c2ccccc21 — Hill coefficient (blaNDM-1; inhibitor): 1.7
C[C@]12CC[C@H]3[C@@H](CCC4=CC(=O)CC[C@@]43C)[C@@H]1CC[C@@H]2C(=O)CO — k-1 (Cytochrome P450 11B2, mitochondrial (CYP11B2, Homo sapiens, UniProt P19099, A320V); substrate): 0.55 ± 0.06 s⁻¹
